Measured values from different studies.
Compare with care: the assays were run in different laboratories. “And” joins repeats or separate records; there may be more than shown. ± marks the error that the study gave.
UniProt P08684, sequence (whole entry, looked up): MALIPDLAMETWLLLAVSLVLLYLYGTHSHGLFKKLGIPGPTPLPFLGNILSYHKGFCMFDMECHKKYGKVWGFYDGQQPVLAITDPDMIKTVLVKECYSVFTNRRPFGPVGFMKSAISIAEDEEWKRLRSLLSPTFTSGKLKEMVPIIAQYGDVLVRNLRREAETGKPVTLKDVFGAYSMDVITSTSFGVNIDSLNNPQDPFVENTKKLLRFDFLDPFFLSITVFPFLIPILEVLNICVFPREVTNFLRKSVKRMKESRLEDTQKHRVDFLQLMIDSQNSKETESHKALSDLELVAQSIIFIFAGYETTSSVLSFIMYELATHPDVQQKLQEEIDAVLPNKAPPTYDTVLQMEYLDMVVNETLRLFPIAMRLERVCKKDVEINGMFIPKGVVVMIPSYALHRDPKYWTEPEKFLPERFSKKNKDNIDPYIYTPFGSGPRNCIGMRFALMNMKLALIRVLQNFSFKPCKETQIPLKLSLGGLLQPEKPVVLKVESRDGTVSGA

With `C/C(=N\NC(=O)Cn1c(-c2ccc(S(C)(=O)=O)cc2)nc2cc(Cl)ccc21)c1ccc(Cl)cc1` the ulcer number was 0.33 (rat, stomach; concentration not given, 4 h).
`C[C@H]1Oc2cc(cnc2N)-c2c(nn(C)c2C#N)CN(C)C(=O)c2ccc(F)cc21` gave a clearance of 80.2 mL/min (population PK; patients with severe renal impairment, plasma; oral, 100 mg, mean, single dose).
For `OCc1cc(C(O)CNCCCCCCOCCCCc2ccccc2)ccc1O` (stereo not drawn), the fraction unbound was 0.0029 (equilibrium dialysis; rat, lung homogenate).
Under “number of Moderate TRAE events”, `NCCONC(=O)[C@@H]1CC[C@@H]2CN1C(=O)N2OS(=O)(=O)O` is recorded as 0 (healthy Chinese male subjects; intravenous, 1 g).
`CCc1nc(C(N)=O)c(Nc2ccc(N3CCC(N4CCN(C)CC4)CC3)c(OC)c2)nc1NC1CCOCC1` gave a renal clearance of 12.3 mL/min (Japanese patients, plasma and urine; oral, 40 mg, cycle 1 day 28, multiple doses, median).
`CC[C@H](CO)N(CCN(N=O)[C@H](CC)CO)N=O` — result for “revertant colonies per plate”: 155 ± 28 (Salmonella typhimurium; mutagenicity, Ames plate incorporation; TA100; 2500 µg/plate, without S9, methanol).
With `N#Cc1ccc2c(c1)[C@H]1CCCN(C(=O)c3ccc4[nH]cnc4c3)[C@H]1C2` the DHEA-S level was 5.1 µmol/L (human, male; 10 mg, day 7).
`C[Si](C)(C)O[Si](C)(C)O[Si](C)(C)C`: “hepatic biotransformation rate constant” 0.298 h⁻¹ and 0.265 h⁻¹ and 0.297 h⁻¹ (Oncorhynchus mykiss; IVIVE from liver S9).
For `Cc1cc(Nc2ccc(S(F)(F)(F)(F)F)cc2)n2nc(C(C)(F)F)nc2n1`, “patients with QTcB above threshold” read 0% (Plasmodium falciparum; 12-lead Holter ECG; human malaria patients; oral, 250 mg, QTc above 500 ms).
`C[C@@H](Oc1ccc(S(C)(=O)=O)cc1C(=O)N1C[C@@H]2C[C@]2(c2cc(C(F)(F)F)on2)C1)C(F)(F)F` — result for “CL/F at steady state”: 117 mL/min (elderly humans, plasma; 50 mg once daily, multiple dose, geometric mean).
`C[C@@H]1COCCN1c1cc(C2([S@](C)(=N)=O)CC2)nc(-c2cc[nH]c3nccc2-3)n1` has a Nausea incidence of 50% (Japanese advanced solid tumour patients; oral, 240 mg twice daily, any grade).
`OC[C@H]1O[C@@H](c2ccc(Cl)c(Cc3ccc(O[C@H]4CCOC4)cc3)c2)[C@H](O)[C@@H](O)[C@@H]1O` — result for “change in AST”: 0 U/L (Japanese type 1 diabetes patients, blood; 2.5 mg, day 28; baseline: baseline).
The CL/F, mean of `Cc1cc(Nc2ncnc3ccc(NC4=NC(C)(C)CO4)cc23)ccc1Oc1ccn2ncnc2c1` is reported as 173 L/h (human, plasma; oral, 300 mg, day 1, single dose alone).
`CO[C@H]1C[C@@H]2CC[C@@H](C)[C@@](O)(O2)C(=O)C(=O)N2CCCC[C@H]2C(=O)O[C@H]([C@H](C)C[C@@H]2CC[C@@H](O)[C@H](OC)C2)CC(=O)[C@H](C)/C=C(\C)[C@@H](O)[C@@H](OC)C(=O)[C@H](C)C[C@H](C)/C=C/C=C/C=C/1C` gave a heart rate of 35 ± 3.3 beats/min (healthy adult horses; intravenous, 0.06 mg/kg, 1 h).
`Cn1cc(-c2ccc(-c3cncc(Cl)c3N3CCC4(CCNC4=O)CC3)cc2)cn1`: “log2 fold change” 1.11 (COLO 205; gene expression, microarray, item: SQLE mRNA; concentration not given, 6 h; baseline: untreated cells).
`CN1C(=O)[C@@H](NC(=O)c2nnc(Cc3ccccc3)[nH]2)COc2cccnc21` has a Tmax of 4.02 h (human, plasma; oral, 600 mg once daily, day 14, median).
For `Oc1cc(O)c2cc(O)c(-c3cc(O)c(O)c(O)c3)[o+]c2c1`, the viability was 134% (HBL-1; 0.1 µM, 120 h).
`C=CC(=O)Nc1cc(Nc2nccc(-c3cn(C4CC4)c4ccccc34)n2)c(OC)cc1N(C)CCN(C)C` has an albumin of 26.9 ± 0.52 g/L (BALB/c nude mice, LU0387 xenograft, serum; oral, 40 mg/kg).
The heart rate of `C[C@@H](O)CCOC(=O)C[C@@H](C)O` is reported as 75 beats/min (human; oral drink, dose not given, 30 min post dose, mean).
With `N[C@@H]1c2ccccc2OC12CCN(c1cnc3c(N4CCCc5ncccc54)n[nH]c3n1)CC2` the AUC(0-tau) was 1270 ng·h/mL (advanced metastatic solid tumour patients, plasma; oral, 10 mg once daily, cycle 1 day 15, geometric mean).
`C[C@@H]1CCO[C@H]2Cn3cc(C(=O)NCc4ccc(F)cc4F)c(=O)c(O)c3C(=O)N12`: “trough concentration (C24)” 553 ng/mL (human paediatric patients, weight sample E to under sample F kg, plasma; oral, 50 mg film-coated tablet, 24 h, steady state, geometric mean, population PK post-hoc, N 7).
`C=CCN1CC(=O)N2[C@@H](Cc3ccc(O)cc3F)C(=O)N(Cc3cccc(N4CC(N5CCN(CC)CC5)C4)n3)C[C@@H]2N1C(=O)NCc1ccccc1` — result for “treatment-related adverse events”: 0% (item: Nausea; advanced solid tumour patients; oral, 100 mg twice daily, expansion part, grade ≥3).
The AUC(0-inf) mean of `CC[C@H]1[C@@H](O)[C@@H]2[C@H](CC[C@]3(C)[C@@H]([C@H](C)CCNC(=O)NS(=O)(=O)c4ccc(C(C)(C)C)cc4)CC[C@@H]23)[C@@]2(C)CC[C@@H](O)C[C@@H]12` is reported as 440 ng·h/mL (Cytochrome P450 3A4 (CYP3A4, Homo sapiens, UniProt P08684); human, plasma; 10 mg, day 1, compound alone).
The DT50 of `COc1ccnc(C(=O)N[C@H]2COC(=O)[C@H](Cc3ccccc3)[C@@H](O)[C@H](C)OC2=O)c1O` is reported as 31.3 days (aerobic soil incubation; soil; worst-case terminal value, for exposure modelling).
`CC(=O)Nc1cccc(-n2c(=O)n(C3CC3)c(=O)c3c(Nc4ccc(I)cc4F)n(C)c(=O)c(C)c32)c1` has a viability of 0.285 and 0.154 and 0.991 and 0.288 and 0.192 and 0.356 (COLO 205; resazurin; concentration not given, 72 h, unit not given; baseline: DMSO).
With `C=C1C(=O)O[C@@H](CCC)[C@@H]1C(=O)O` (racemic) the viability was 117% (HBL-1; 0.1 µM, 120 h).
`O=C(O)CCC(=O)O.[2H]C([2H])([2H])Oc1cc(C)c2[nH]ccc2c1CN1CC[C@@H](C2CC2)C[C@H]1c1ccc(C(=O)O)cc1`: “subjects with elevated AST TEAE” 0% (multiple ascending dose; healthy Chinese subjects; 125 mg twice daily).

For quick reference, copied from above:
`C[C@@H](Oc1ccc(S(C)(=O)=O)cc1C(=O)N1C[C@@H]2C[C@]2(c2cc(C(F)(F)F)on2)C1)C(F)(F)F` — result for “CL/F at steady state”: 117 mL/min (elderly humans, plasma; 50 mg once daily, multiple dose, geometric mean).
`C[C@@H]1COCCN1c1cc(C2([S@](C)(=N)=O)CC2)nc(-c2cc[nH]c3nccc2-3)n1` has a Nausea incidence of 50% (Japanese advanced solid tumour patients; oral, 240 mg twice daily, any grade).
`OC[C@H]1O[C@@H](c2ccc(Cl)c(Cc3ccc(O[C@H]4CCOC4)cc3)c2)[C@H](O)[C@@H](O)[C@@H]1O` — result for “change in AST”: 0 U/L (Japanese type 1 diabetes patients, blood; 2.5 mg, day 28; baseline: baseline).
The CL/F, mean of `Cc1cc(Nc2ncnc3ccc(NC4=NC(C)(C)CO4)cc23)ccc1Oc1ccn2ncnc2c1` is reported as 173 L/h (human, plasma; oral, 300 mg, day 1, single dose alone).
